Published values from different studies.
Each line is one published result; not all experiments were run side by side.
Cell line: HepG2

SMILES	test	setting	how to read	measurement	result
CC(=NN=c1sc(C(=O)c2ccccc2)nn1-c1ccccc1)c1ccc(S(=O)(=O)N2CCC(C)CC2)cc1	flow cytometry	3.31 µM, 72 h	–	cells in %S	34.6%
CC(=O)O[C@H]1CC[C@]2(C)[C@H]3C(=O)C=C4[C@@H]5C[C@@](C)(C(=O)OCc6ccccc6)CC[C@]5(C)CC[C@@]4(C)[C@]3(C)CC[C@H]2C1(C)C	MTT	5 µM, 48 h	–	cell death	~50%
CSC(=S)N/N=C(\C)c1ccc(S(=O)(=O)N2CCC(C)CC2)cc1	flow cytometry	3.31 µM, 72 h	–	cells in %S	32.6%
CN(C(=NN=C(c1ccccc1)c1ccccn1)[S][Ga]([Cl])[Cl])C1CCCCC1	H2DCF-DA flow cytometry	5 µM, 24 h	relative to: control	intracellular ROS level	27.1%
Cc1cc2nc(-c3cc4ccccc4nc3Cl)[nH]c2cc1C	western blot, refers to: Bcl-2	concentration not given	relative to: untreated	protein level	decreased
CC(=O)O[C@@H]1CC[C@@]2(C)C(CC[C@]3(C)C2C(=O)C=C2C4[C@@H](C)[C@H](C)CC[C@]4(C)CC[C@]23C)[C@@]1(C)C(=O)OCC(=O)Oc1cc(C)ccc1C(C)C (stereo partly drawn)	IL-1β production, ELISA, refers to: IL-1β	1 µM, with: acetaminophen 10 mM	relative to: acetaminophen-treated cells	inhibition	~39%
CSC(=NN=C(C)c1ccc(S(=O)(=O)N2CCC(C)CC2)cc1)N(C)C	annexin V/PI staining	IC50, 72 h	–	apoptotic cells late	15%
CC(=O)O[C@@H]1CC[C@@]2(C)C(CC[C@]3(C)C2C(=O)C=C2C4[C@@H](C)[C@H](C)CC[C@]4(C)CC[C@]23C)[C@@]1(C)C(=O)N/N=C1/C(=O)Nc2ccccc21 (stereo partly drawn)	–	10 µM, acetaminophen-induced injury, with: 10 mM acetaminophen	–	MDA level	4.7 nmol/mg
Cc1c(C(=O)NNC(=S)Nc2ccc(Cl)cc2)nnn1Cc1nc2ccccc2[nH]1	annexin V/PI	concentration not given, 24 h	–	late apoptotic cells	25.1%

Some of these lines once more:
SMILES	test	setting	how to read	measurement	result
CN(C(=NN=C(c1ccccc1)c1ccccn1)[S][Ga]([Cl])[Cl])C1CCCCC1	H2DCF-DA flow cytometry	5 µM, 24 h	relative to: control	intracellular ROS level	27.1%
